Experimental data gathered from unrelated publications.
Compare with care: the assays were run in different laboratories. Numbers after ± are the reported error.

Cc1cccc(C)c1OCC(=O)N[C@@H](Cc1ccccc1)[C@H](C[C@H](Cc1ccccc1)NC(=O)[C@H](C(C)C)N1CCCNC1=O)OC(=O)[C@H](CC(C)C)NC(=O)[C@@H](N)Cc1cnc[nH]1  remaining uptake (cell line; transport, inhibitor; 25 µM, added: [3H]-GlySar; baseline: untreated): ~30%
COc1cc(CNC(=O)C[C@H](C)CCC=C(C)C)ccc1OCc1cn(-c2ccccc2F)nn1  growth (A549/ATCC; SRB; 10 µM, 48 h): 80.6%
O=C1CCC(N2C(=O)c3ccc(N4CCC(C(=O)N5CCC(CCN6CCC(CNC(=O)c7cccc(-c8noc(C(F)(F)F)n8)c7)(c7nc(-c8ccccc8)cs7)CC6)CC5)CC4)cc3C2=O)C(=O)N1 (stereo not drawn)  sub-G0 cells (DHL6; flow cytometry; 1 µM, 48 h): 99.3%
COc1cc(CNC(=O)C[C@H](C)CCC=C(C)C)ccc1OCc1cn(-c2ccccc2Cl)nn1  growth percent (IGROV-1 ovarian cancer cells; SRB; 10 µM, 48 h): 87%
CCC(=O)N(C)c1ccc(Cl)c(Cl)c1  inhibition (primary mouse osteoclasts; osteoclast multinucleation, refers to: TRAP-positive cells; 50 µM, 5 d, added: RANKL and M-CSF): ~50%
CCCCCCCC(=O)O[C@H]1[C@H](C)O[C@@H](O[C@H]2[C@H](N(C)C)[C@@H](O)[C@H](O[C@H]3[C@@H](CC=O)C[C@@H](C)[C@@H](O[C@H]4CC[C@H](N(C)C)[C@@H](C)O4)/C=C/C=C/C[C@@H](C)OC(=O)C[C@@H](O)[C@@H]3OC)O[C@@H]2C)C[C@@]1(C)O  selectivity index (GES-1 and HGC-27; cell growth, CCK-8; 72 h; baseline: IC50 GES-1 over HGC-27): 3.05
COc1cc(CNC(=O)C[C@H](C)CCC=C(C)C)ccc1OCc1cn(-c2cccc(Cl)c2)nn1  growth percent (MCF7 breast cancer cells; SRB; 10 µM, 48 h): 63.3%
[Cl][Au].[Se]=c1n(C23CC4CC(CC(C4)C2)C3)ccn1C12CC3CC(CC(C3)C1)C2  resistance factor (LoVo MDR; MTT; baseline: LoVo MDR over LoVo): 1.3
COc1cc(CNC(=O)C[C@H](C)CCC=C(C)C)ccc1O  growth (A549/ATCC; SRB; 10 µM, 48 h): 96.4%
CN1C(=CC2=C(O)C(=CC3=[N+](CCC[N+](C)(C)C)c4ccc(F)cc4C3(C)C)C2=O)C(C)(C)c2ccccc21  cellular uptake (ID8; 2 µM, 30 min, 4 °C): decreased
FC(F)(F)c1ccnc(-c2cc(C(F)(F)F)ccn2)c1.FC(F)(F)c1ccnc(-c2cc(C(F)(F)F)ccn2)c1.[Cl-].[Cl-].[Ru+2].c1csc(-c2ccc(-c3ccc(-c4ccc(-c5nc6c7cccnc7c7ncccc7c6[nH]5)s4)s3)s2)c1  phototherapeutic index (SK-MEL-28; normoxia, largest value, added: visible light): 12000
CO[C@@H]1[C@@H](O[C@@H]2O[C@H](C)[C@@H](O[C@H]3C[C@@](C)(O)[C@@H](OC(=O)Nc4ccc(C(F)(F)F)cc4)[C@H](C)O3)[C@H](N(C)C)[C@H]2O)[C@@H](CC=O)C[C@@H](C)[C@@H](O[C@H]2CC[C@H](N(C)C)[C@@H](C)O2)/C=C/C=C/C[C@@H](C)OC(=O)C[C@H]1O  selectivity index (GES-1 and HGC-27; cell growth, CCK-8; 72 h; baseline: IC50 GES-1 over HGC-27): 3.77
C=C(CC)C(=O)c1ccc(OCC(=O)NCCCCNC(=O)COc2ccc(C(=O)C(=C)CC)c(Cl)c2Cl)c(Cl)c1Cl  IC10 (CoC1/DDP; cell growth, CCK-8; 72 h): ~0.2 µM
C#CCN(CC(=O)O[C@H]1[C@H](C)O[C@@H](O[C@H]2[C@H](N(C)C)[C@@H](O)[C@H](O[C@H]3[C@@H](CC=O)C[C@@H](C)[C@@H](O[C@H]4CC[C@H](N(C)C)[C@@H](C)O4)/C=C/C=C/C[C@@H](C)OC(=O)C[C@@H](O)[C@@H]3OC)O[C@@H]2C)C[C@@]1(C)O)C(=O)c1ccc(C(F)(F)F)cc1  selectivity index (GES-1 and HGC-27; cell growth, CCK-8; 72 h; baseline: IC50 GES-1 over HGC-27): 10.3
COc1ccc(CC2COC(=O)C2Cc2ccc3c(c2)OCO3)cc1OC (mixture of isomers)  live cells (A2780cis; refers to: multi-caspase; 3.25 µM, 72 h; baseline: untreated): decreased
C=C1C(=O)OC2C1CCC1(C)CC1CCC1(C)OC21 (stereo not drawn)  ROS level (TEX; CellROX Green flow cytometry; 100 µM, 30 min; baseline: untreated): 2.6 fold
COc1cc(CNC(=O)C[C@H](C)CCC=C(C)C)ccc1OCc1cn(-c2ccc(Br)cc2)nn1  growth percent (IGROV-1 ovarian cancer cells; SRB; 10 µM, 48 h): 89.9%
CCCCCCCCCC[N]1C(=O)c2cccc[n+]2[Ir]1[Cl].Cc1c(C)c(C)[c-](C)c1C  NAD+ level (SH-SY5Y; concentration not given, added: MPP+): 36%
CC(C)c1cnn2c(NCc3ccccc3)cc(N[C@@H](CO)[C@H](O)CO)nc12  intracellular calcein decrease (HCT-116 resistant to compound; ABCB1 efflux function, calcein-AM; concentration not given; baseline: parental HCT-116): 1.5 fold
CC(=O)N[C@H](C(=O)N[C@H](C(=O)N[C@@H](CCCNC(=N)N)C(=O)N1Cc2ccccc2C[C@H]1C(=O)N[C@@H](Cc1ccccc1)C(N)=O)C1CCCCC1)C(C)C  cytokine level (MBP-specific BC-3 T cells; Bio-Plex multiplex, refers to: IL-15; 200 µg/mL, 24 h, added: MBP87-99 antigen): < 0.2 pg/mL
Cc1nn(C)c(O)c1-c1nc2cc(Cl)c(Cl)cc2[nH]c1=O  apoptotic cells (TF-1; caspase 3/7; IC50, 72 h): ~70%
COc1cc(CNC(=O)C[C@H](C)CCC=C(C)C)ccc1OCc1cn(-c2ccccc2)nn1  growth percent (MCF7 breast cancer cells; SRB; 10 µM, 48 h): 80.6%
CCC/C(=C\C1=C(F)C(=O)c2ccccc2C1=O)C(=O)N(CC)CC  NADPH/total NADP ratio (Pa03C cells; concentration not given, 6 h): decreased
COc1ccc([C@@H]2CC(=O)c3c(O)cc(O[C@@H]4O[C@H](CO[C@@H]5O[C@@H](C)[C@H](O)[C@@H](O)[C@H]5O)[C@@H](O[C@H]5O[C@H](CO)[C@@H](O)[C@H](O)[C@H]5O)[C@H](O)[C@H]4O)cc3O2)cc1O  cell count (MRC5; trypan blue exclusion; 50 µg/mL, 48 h): 13300 ± 450
CN(C)c1cc2ccccc2c(N)n1  mRNA stability (LX-2; actinomycin D chase, qPCR, refers to: MMP9; concentration not given, 6 h pretreatment): no effect
COc1cc(CNC(=O)C[C@H](C)CCC=C(C)C)ccc1OCc1cn(-c2cccc(C(F)(F)F)c2)nn1  growth (A549/ATCC; SRB; 10 µM, 48 h): 42.6%
CCOC(=O)c1c(C(C)C)oc2nc(N3CCOCC3)ccc12  EC50 (CRL8155; cell growth or viability; 48 h): > 50 µM
O=S(=O)(CCC(F)(F)F)Nc1ccc(Oc2ncccc2-c2ccnc(N[C@H]3CCCNC3)n2)c2ccccc12  cleaved caspase-3 level (INS1 cells with Dox-inducible IRE1α; immunoblot; 20 µM, added: 5 ng/mL doxycycline): decreased
CC(C)C[C@@H](OC(=O)[C@@H](NC(=O)[C@H](C)OCc1ccccc1)C(C)C)C(=O)N[C@@H](C(=O)O)C(C)C  ED50 (P388; cell growth; DMSO): > 10 µg/mL
O=C(O)CCC(NP(=O)(O)OCCC[C@@H](NC(=O)CC[C@H](NC(=O)CCCCCNC(=O)c1ccc([18F])cc1)C(=O)O)C(=O)O)C(=O)O (stereo partly drawn)  cell uptake (CWR22Rv1; concentration not given, 4 h): 1.32 ± 0.52%
CO[C@H]1N(OC)c2ccccc2[C@@]12CN=C(Nc1cc(C(F)(F)F)cc(C(F)(F)F)c1)S2 (relative stereo)  sub-G1 phase cells (HCT-116; PI flow cytometry; 40 µM, 24 h): 19.7 ± 2.26%
CCCCCCC(CC=CCCCCCCCC(=O)OCCOCn1cnc2c(=O)[nH]c(N)nc21)OC(=O)CCCCC1SCC2NC(=O)NC21 (stereo not drawn)  uptake (HCEC; 37 °C, sodium-free buffer; baseline: uptake with sodium): ~43%
O=Cc1c(O)ccc2ccccc12  log2 fold change (HUVEC; RNA sequencing, refers to: RND3; 75 µM, 24 h; baseline: DMSO): 3.03
O=C1c2c(O)cc(O)cc2-c2c(-c3ccc(O)cc3)oc3cc(O)cc1c23  number of proteins upregulated (MCF7 cells; label-free MS proteomics; 10 µM): 79
CCC(=C(c1ccc(Cl)cc1)c1ccc(OCCCN(C)C)cc1)c1ccc(OC)cc1  GI50 (A549/ATCC; NCI five-dose screen; non-small-cell lung cancer): 3.88 µM
COc1ccc(/C=C/C2=[N+]3C(=C(COC(C)=O)c4c(C)cc(/C=C/c5ccc(OC)cc5)n4[B-]3(F)F)C(C)=C2)cc1  phototoxicity index (RPE-1; resazurin; added: 645 nm light; baseline: dark over light IC50): 35 ± 5
CC1(C)C2CC[C@]3(C)[C@H](C(=O)C=C4[C@@H]5C[C@@](C)(C(=O)N6CCN(C(=O)Cc7ccc(Cl)cc7)CC6)CC[C@]5(C)CC[C@]43C)[C@@]2(C)CC[C@@H]1OC(=O)Cc1ccc(Cl)cc1 (stereo partly drawn)  inhibition (KARPAS-299; cell growth or viability, MTT; 2 µg/mL): 0%
COc1cc(CNC(=O)C[C@H](C)CCC=C(C)C)ccc1OCc1cn(-c2ccc([N+](=O)[O-])cc2)nn1  growth (MDA-MB-231/ATCC; SRB; 10 µM, 48 h): 76.8%
CC(=O)[C@@]1(O)CC[C@H]2[C@@H]3CCC4=CC(=O)CC[C@]4(C)[C@H]3CC[C@@]21C  cell growth (MDA-MB-231, GPR126-silenced, overexpressing W1081A mutant; inhibitor; 10 nM, 72 h): inhibited

Some of these lines once more:
COc1cc(CNC(=O)C[C@H](C)CCC=C(C)C)ccc1OCc1cn(-c2ccc(Br)cc2)nn1  growth percent (IGROV-1 ovarian cancer cells; SRB; 10 µM, 48 h): 89.9%
CCOC(=O)c1c(C(C)C)oc2nc(N3CCOCC3)ccc12  EC50 (CRL8155; cell growth or viability; 48 h): > 50 µM
CO[C@@H]1[C@@H](O[C@@H]2O[C@H](C)[C@@H](O[C@H]3C[C@@](C)(O)[C@@H](OC(=O)Nc4ccc(C(F)(F)F)cc4)[C@H](C)O3)[C@H](N(C)C)[C@H]2O)[C@@H](CC=O)C[C@@H](C)[C@@H](O[C@H]2CC[C@H](N(C)C)[C@@H](C)O2)/C=C/C=C/C[C@@H](C)OC(=O)C[C@H]1O  selectivity index (GES-1 and HGC-27; cell growth, CCK-8; 72 h; baseline: IC50 GES-1 over HGC-27): 3.77
COc1ccc(/C=C/C2=[N+]3C(=C(COC(C)=O)c4c(C)cc(/C=C/c5ccc(OC)cc5)n4[B-]3(F)F)C(C)=C2)cc1  phototoxicity index (RPE-1; resazurin; added: 645 nm light; baseline: dark over light IC50): 35 ± 5
FC(F)(F)c1ccnc(-c2cc(C(F)(F)F)ccn2)c1.FC(F)(F)c1ccnc(-c2cc(C(F)(F)F)ccn2)c1.[Cl-].[Cl-].[Ru+2].c1csc(-c2ccc(-c3ccc(-c4ccc(-c5nc6c7cccnc7c7ncccc7c6[nH]5)s4)s3)s2)c1  phototherapeutic index (SK-MEL-28; normoxia, largest value, added: visible light): 12000
CCC/C(=C\C1=C(F)C(=O)c2ccccc2C1=O)C(=O)N(CC)CC  NADPH/total NADP ratio (Pa03C cells; concentration not given, 6 h): decreased
CCC(=O)N(C)c1ccc(Cl)c(Cl)c1  inhibition (primary mouse osteoclasts; osteoclast multinucleation, refers to: TRAP-positive cells; 50 µM, 5 d, added: RANKL and M-CSF): ~50%
